Experimental data gathered from unrelated publications.
“And” joins repeats or separate records; there may be more than shown. ± gives the spread as reported.
Cell line: A549

SMILES	test	setting	IC50
CCOC(=O)/C=C1\S/C(=N\N=C\c2cccc3cc4ccccc4nc23)N(c2ccccc2)C1=O	cell growth or viability, MTT	48 h	> 50 µM
CCCC(=O)Oc1c(C)c(OC)c2c(c1C)OC(=O)[C@@H](CC)[C@]2(O)/C=C/c1ccccc1 (racemic)	cell growth or viability, SRB	72 h	> 50 µM
Cc1nc(N(C)c2ccc3c(c2)/C(=C/c2ccccc2)C(=O)N3C)c2ccccc2n1	cell growth or viability, MTT		2.18 µM
COC(=O)[C@@H](NC(=O)[C@@H](NC(=O)OC(C)(C)C)C(C)C)C(C)C	cell growth or viability, SRB		0.67 µM and 1.49 µM and 0.76 µM
CCOC(=O)/C=C1\S/C(=N\N=C\c2cccc3cc4ccccc4nc23)N(c2ccc([N+](=O)[O-])cc2)C1=O	cell growth or viability, MTT	48 h	> 50 µM
CCCc1cc2cc(-n3nc(C4CC4(F)F)c4c3CC(C)(C)CC4=O)cc(N3CCC(O)CC3)c2c(=O)[nH]1 (racemic)	cell growth or viability, MTS		2.36 µM
Cc1nc(Nc2ccc3c(c2)/C(=C/c2ccccc2)C(=O)N3)c2ccccc2n1	cell growth or viability, MTT		42.7 µM
CCCCCCC(=O)[O][Pt]([NH2])([NH2])([Cl])([Cl])[O]C(=O)CCC(C)C1CCC2C3CCC4CC(O)CCC4(C)C3CCC12C (stereo not shown)	cell growth or viability, MTT		1.2 µM
CCCC[N+]1=c2cc3c4cc2[O][Mn-2]1(=[C]=O)(=[C]=O)(=[C]=O)[n+]1ccc(cc1)C(=O)OCCOCCOC(=O)c1cc[n+](cc1)[Mn-2](=[C]=O)(=[C]=O)(=[C]=O)([O]3)[N+]=4CCCC	cell growth, MTT	48 h, LED light photolysis 1 h	6.87 ± 0.42 µM
CC(C)[C@@H]1NC(=O)[C@@H](CCCNC(=N)N)NC(=O)[C@H]([C@@H](C)O)NC(=O)[C@@H](CCCN)NC(=O)[C@H](Cc2ccc(F)cc2)NC(=O)[C@@H](Cc2ccccc2)NC1=O	cell growth or viability, ATP luminescence		> 100 µM
C=CCOc1c(C)c(OC)c(C(=O)/C=C/c2ccccc2)c(OCC=C)c1C	cell growth or viability, SRB	72 h	> 50 µM
CCCc1cc2cc(-n3nc(C(F)F)c4c3CC3(CCC3)CC4=O)cc(N3CCC(O)CC3)c2c(=O)[nH]1	cell growth or viability, MTS		3.81 µM
O=C(NCCOCCOCCOCCNC(=O)c1cc2ccccc2c2ccccc12)c1cc(C(=O)N2CCNCCNCCNCC2)c(O)c(C(=O)N2CCNCCNCCNCC2)c1	cell growth or viability, MTT	24 h	> 1000 µM
O=[C]=[Mn-2]12(=[C]=O)(=[C]=O)[O]c3cc4c(cc3=[N+]1CCc1ccccc1)[O][Mn-2](=[C]=O)(=[C]=O)(=[C]=O)([N+]=4CCc1ccccc1)[n+]1ccc(cc1)C(=O)Nc1ccccc1NC(=O)c1cc[n+]2cc1	cell growth, MTT	48 h, LED light photolysis 1 h	2.67 ± 0.89 µM
O=C(O)c1ccc(-c2ccc(O)cc2)c2c1C=C(c1ccc(O)cc1)OC2(c1ccc(O)cc1)c1ccc(O)cc1	cell growth or viability, MTT	48 h	9.61 µM
O=C1CS/C(=N\N=C\c2cccc3cc4ccccc4nc23)N1c1ccccc1	cell growth or viability, MTT	48 h	46.3 µM
C=CCOCO[C@H](C(=O)NC[C@@H]1C[C@@H](OC)C(C)(C)[C@@H](C[C@@H](COC)OC)O1)[C@@]1(OC)CC(=C)[C@@H](C)[C@@H](C)O1	cell viability, sulforhodamine B	72 h, 37 °C, without H2O2	2.65 ± 1.14 µM

SMILES	test	setting	IC50
CCCc1cc2cc(-n3nc(C(C)C)c4c3CC(C)(C)CC4=O)cc(N3CCC(O)CC3)c2c(=O)[nH]1	cell growth or viability, MTS		9.58 µM
CC(C)[C@@H]1NC(=O)[C@@H](CCCNC(=N)N)NC(=O)[C@H]([C@@H](C)O)NC(=O)[C@@H](CCCN)NC(=O)[C@H](Cc2cccc(F)c2)NC(=O)[C@@H](Cc2ccccc2)NC1=O	cell growth or viability, ATP luminescence	72 h	> 100 µM
O=C(/C=C/Sc1ccc(C(F)(F)F)cn1)c1ccccc1	cell growth or viability, ATP luminescence	48 h	16.1 µM
Cc1cc(C(=O)N2CCNCCNCCNCC2)c(O)c(C(=O)N2CCNCCNCCNCC2)c1	cell growth or viability, MTT	24 h	> 10000 µM
CCN(CC)c1ccc(-c2oc3cc4ccccc4cc3c(=O)c2O)cc1	cytotoxicity	24 h, together with: visible light	10.7 ± 1.2 µM
Oc1ccc(C#Cc2c(O)ccc3c2C(c2ccc(O)cc2)(c2ccc(O)cc2)c2cc(O)ccc2-3)cc1	cell growth or viability, MTT	48 h	19.4 µM
COc1cc(C2=CCCc3c2ccc(OC)c3OCc2ncc([N+](=O)[O-])n2C)cc(OC)c1OC		4 h, anoxic	5.25 ± 0.46 µM
CCCc1cc2cc(-n3nc(C(F)F)c4c3CC(C)(C)CC4=O)cc(N3CCC(O)CC3)c2c(=O)[nH]1	cell growth or viability, MTS		6.07 µM
CO[C@@H](C[C@H]1C(C)=CC[C@@H]2[C@]3(C)C[C@H](O[C@@H]4O[C@@H](C)[C@H](OC(=O)c5cccc(O)c5)[C@@H](O)[C@H]4O)[C@@H](O)C(C)(C)[C@H]3CC[C@]21C)[C@H](N)C(=O)O	cell growth or viability, CCK-8	72 h	7.6 µM
NC(=O)c1ccc(-c2ccccc2Cl)c2c3c([nH]c12)CCC(N)C3 (stereo not shown)	cell growth or viability	96 h	0.0268 µM
CCOC(=O)/C=C1\S/C(=N\N=C\c2cccc3cc4ccccc4nc23)N(C)C1=O	cell growth or viability, MTT	48 h	> 50 µM
NC1=C(Cl)C(=O)c2ccccc2C1=O	cell growth or viability, MTT		16.3 µM
CCCCCCCCCC(=O)[O][Pt]([Cl])([Cl])[O]C(=O)CCCCCCCCC.N.N	cell growth or viability, MTT		1.14 µM
Cc1nc(N(C)c2ccc3c(c2)/C(=C/c2cn(C)c4ccccc24)C(=O)N3C)c2ccccc2n1	cell growth or viability, MTT		3.83 µM
CCCCCCCC(=O)Oc1c(C)c(OC)c2c(/C=C/c3ccccc3)c(CCCCCC)c(=O)oc2c1C	cell growth or viability, SRB	72 h	> 50 µM
NC1=C(Cl)C(=O)c2cccc([N+](=O)[O-])c2C1=O	cell growth or viability, MTT		41.9 µM
Cc1ccc(C(C)C)cc1.Cc1ccc(C(C)C)cc1.Cc1ccc(C(C)C)cc1.Cc1ccc(C(C)C)cc1.O=S(=O)(O)C(F)(F)F.O=S(=O)(O)C(F)(F)F.O=S(=O)(O)C(F)(F)F.O=S(=O)(O)C(F)(F)F.c1ccc2c3c4ccccc4c(c2c1)-c1cn(nn1)-c1cc[n+](cc1)[Ru-]1[O]c2cc4c(cc2=[O+]1)[O][Ru-]([O+]=4)[n+]1ccc(cc1)-n1cc(nn1)-c1c2ccccc2c(c2ccccc12)-c1cn(nn1)-c1cc[n+](cc1)[Ru-]1[O]c2cc4c(cc2=[O+]1)[O][Ru-]([O+]=4)[n+]1ccc(cc1)-n1cc-3nn1	cell growth or viability, MTT	24 h	> 20 µM

Some of these lines once more:
SMILES	test	setting	IC50
COC(=O)[C@@H](NC(=O)[C@@H](NC(=O)OC(C)(C)C)C(C)C)C(C)C	cell growth or viability, SRB		0.67 µM and 1.49 µM and 0.76 µM
CCOC(=O)/C=C1\S/C(=N\N=C\c2cccc3cc4ccccc4nc23)N(c2ccc([N+](=O)[O-])cc2)C1=O	cell growth or viability, MTT	48 h	> 50 µM
CCCc1cc2cc(-n3nc(C4CC4(F)F)c4c3CC(C)(C)CC4=O)cc(N3CCC(O)CC3)c2c(=O)[nH]1 (racemic)	cell growth or viability, MTS		2.36 µM
